Measured values of several laboratories.
Lines come from different studies, so protocols differ. Numbers after ± are the reported error. In brackets after ≈: the same amount, converted by molar mass.

For `Cc1cc2c(cc1C1(c3ncc(C(=O)O)cn3)CC1)C(C)(C)CCC2(C)C`, the LDL level was 5 ± 1.5 mg/dL (Sprague-Dawley rat, male, plasma; oral, 100 mg/kg, 12 h, sesame oil vehicle).
Under “patients with ALT increase”, `CC(C)c1cnc(-c2cc(Cl)ccc2F)cc1Nc1ccncc1C(=O)NC(CO)CO` is recorded as 9.5% (patients, phase I monotherapy; oral, dose not given, grade 1).
`COCCOCCOCCOCCOCCOCCOCCNC(=O)CCC1(CCC(=O)NCCOCCOCCOCCOCCOCCOCCOC)c2ccccc2-c2ccc(-c3sc(-c4c5c(c(-c6sc(-c7ccc8c(c7)C(CCC(=O)NCCOCCOCCOCCOCCOCCOCCOC)(CCC(=O)NCCOCCOCCOCCOCCOCCOCCOC)c7ccccc7-8)c7c6OCCO7)c6nsnc46)N=S=N5)c4c3OCCO4)cc21` gave a faecal excretion of ~47% (KM mice, female, faeces; intravenous, dose not given, 24 h; baseline: dose).
With `Oc1ccc2ccccc2c1/N=N/c1ccc(/N=N/c2ccccc2)cc1` the measured concentration was 0.204 µg/L (rat whole blood extract; 0.2 µg/L, 30 days, -20 °C, long-term storage).
The uptake ratio of `CCCC[C@H](NC(=O)CNC(=O)CNC(=O)CN1CCN(CC(=O)O)CCN(CC(=O)O)CC1)C(=O)N[C@H]1CC(=O)NCCCC[C@@H](C(N)=O)NC(=O)[C@H](Cc2c[nH]c3ccccc23)NC(=O)[C@H](CCCNC(=N)N)NC(=O)[C@@H](Cc2ccccc2)NC(=O)[C@H](Cc2c[nH]cn2)NC1=O` [copper-64 labelled] is reported as 12.5 (female C57 mouse, B16/F1 melanoma; intravenous, 0.037 MBq, 4 h; baseline: tumour over stomach).
`CC(C)C[C@H](NC(=O)C[C@H](O)[C@H](CC(C)C)NC(=O)[C@H](Cc1c[nH]cn1)NC(=O)CNC(=O)[C@@H](NC(=O)[C@H](C)NC(=O)[C@H](Cc1c[nH]c2ccccc12)NC(=O)[C@H](CCC(N)=O)NC(=O)[C@@H](Cc1ccccc1)NC(=O)CCNC(=O)CCNC(=O)CN1CCN(CC(=O)O)CCN(CC(=O)O)CCN(CC(=O)O)CC1)C(C)C)C(N)=O` [lutetium-177 labelled] gave an absorbed dose of 7.3 Gy (MIRD; mouse PC-3 xenograft, kidneys; intraperitoneal, 50 MBq, without PA).
Under “volume of distribution”, `CCCC[C@H](NC(C)=O)C(=O)N[C@H]1CC(=O)NCCCC[C@@H](C(=O)N[C@@H](C(=O)N2CCC[C@@H]2C(N)=O)C(C)C)NC(=O)[C@H](Cc2c[nH]c3ccccc23)NC(=O)[C@H](CCCN=C(N)N)NC(=O)[C@@H](Cc2ccc3ccccc3c2)NC(=O)[C@@H]2CCCN2C1=O` is recorded as 4240 ± 415 mL (Beagle dog, both sexes, plasma; subcutaneous, once daily, 2.25 mg/kg, day 28).
The performance time of `C[Si](C)(C)C[C@H](CN)CC(=O)O` is reported as 135 s (neuromuscular coordination; Wistar rat male; oral, 300 mg/kg, 2 h).
For `C#CCOc1ccc(/C=C2\SC(=O)N(CC(=O)NCc3ccccc3)C2=O)cc1`, the correlation volume was 1420 cm³/mol (inverse Kirkwood-Buff integrals; binary solvent mixture; concentration not given, 298.15 K, mole fraction x1 0.05).
Under “beta rate constant”, `N=C(N)NCCC[C@@H]1NC(=O)[C@H](Cc2c[nH]c3ccccc23)NC(=O)[C@@H](CC2CCCCC2)NC(=O)[C@@H]2CCCN2C(=O)[C@@H](NC(=O)CCc2ccccc2)CCCNC1=O` is recorded as 0.03 min⁻¹ (two-compartment model; C57BL/6J mice, plasma; intraperitoneal, 1 mg/kg).
The freeze-thaw stability of `COc1cc(/C=C/C(=O)O)ccc1O` is reported as 100 ± 3.21% (human plasma; 400 ng/mL, 3 cycles).
With `CCCC(CCC)NC(=O)c1ccc(OS(=O)(=O)O)c(OC)c1` the AUC(0-last) ratio was 12.8 (male Sprague-Dawley rats, plasma; oral, 200 mg/kg of parent drug; baseline: 200 over 20 mg/kg dose).
The absorption maximum of `COc1ccc(/C=C/c2ccc(-c3ccc(C)cn3)nc2)cc1` is reported as 374 nm (acetonitrile; zinc complex).
For `COc1cc(C)c(Cc2ccc(O)cc2)cc1[C@@H]1S[C@H](CO)[C@@H](O)[C@H](O)[C@H]1O`, the Tmax was 3.31 ± 2.53 h (Japanese T2DM patients, plasma; 2.5 mg luseogliflozin, day 1, once daily).
For `COC(=O)C1OC(Oc2c(-c3ccccc3)oc3cc(O)c(O)c(O)c3c2=O)C(O)C(O)C1O` (centres unmarked), the organ weight was 1.25 ± 0.6 g (BALB/c mouse, kidney; 5 mg/kg).
For `O=C(NCC1OC2CCC=CCCC2O1)c1ccc([18F])nc1` (centres unmarked), the radiochemical purity was 95% (PBS; 2 h, 37 °C).
With `CC/C=C\C/C=C\C/C=C\C/C=C\C/C=C\CCCCOC(CC)C(=O)O` (centres unmarked) the radioactivity concentration was 60.9 µg equiv/g ([14C] label; male Wistar rat, whole blood; oral, 100 mg/kg, 4 h).
`CC[C@H](C)[C@H](NC(=O)[C@H](N)Cc1ccc(O)cc1)C(=O)N[C@H]1CSSC[C@@H](C(=O)N(C)[C@H](C(N)=O)[C@@H](C)CC)NC(=O)[C@H](CCCNC(=N)N)NC(=O)[C@H](Cc2c[nH]cn2)NC(=O)[C@H](C)NC(=O)CN(C)C(=O)[C@H](Cc2c[nH]c3ccccc23)NC(=O)[C@H](CC(=O)O)NC(=O)[C@H](CCC(N)=O)NC(=O)[C@H](Cc2cn(C)c3ccccc23)NC(=O)[C@H](C(C)C)NC1=O` has a recovery of 97.5 ± 5.1% (UPLC-ESI-MS; human plasma; 0.36 µg/mL, 24 h, 4 °C, autosampler after SPE).
`CC[C@H](C)[C@H](NC(=O)[C@H](CCCCN)NC(=O)[C@H](CS)NC(=O)[C@H](CC(N)=O)NC(=O)[C@H](C)NC(=O)[C@H](CCCNC(=N)N)NC(=O)[C@H](CCCNC(=N)N)NC(=O)[C@H](CC(N)=O)NC(=O)[C@H](CCCNC(=N)N)NC(=O)[C@@H](NC(=O)[C@H](CCCNC(=N)N)NC(=O)[C@H](CS)NC(=O)[C@H](CO)NC(=O)[C@@H](NC(=O)[C@@H](NC(=O)[C@H](CS)NC(=O)[C@H](CCCCN)NC(=O)[C@@H](N)CCCNC(=N)N)C(C)C)[C@@H](C)CC)[C@@H](C)CC)C(=O)N[C@@H](CC(C)C)C(=O)N[C@@H](CS)C(=O)N[C@@H](CC(N)=O)C(=O)O`: “single disulfide form” 2% (LC-MS; PBS; 0.1 mg/mL).
Under “subjects with TEAE”, `Cn1c(=O)oc2ccc(-c3ccc(CC(C#N)NC(=O)C4CNCCCO4)c(F)c3)cc21` (centres unmarked) is recorded as 0% (measured: skin exfoliation; human; 40 mg single dose, fasted).
With `O=C(CNc1ccc(F)c(S(=O)(=O)N2CCOCC2)c1)Nc1ccc(F)c(Cl)c1` the kinetic solubility was 219 µM (≈ 97.6 µg/mL) (water).
The tracer uptake of `O=C(O)C1CN(Cc2ccc(-c3noc(-c4ccc(OCC[18F])c(C(F)(F)F)c4)n3)cc2)C1` is reported as 0.811 %ID/g (rat, heart; intravenous, 5 min).
`CCCC[C@H](NC(=O)CNC(=O)CNC(=O)CN1CCN(CC(=O)O)CCN(CC(=O)O)CC1)C(=O)N[C@H]1CC(=O)NCCCC[C@@H](C(N)=O)NC(=O)[C@H](Cc2c[nH]c3ccccc23)NC(=O)[C@H](CCCNC(=N)N)NC(=O)[C@@H](Cc2ccccc2)NC(=O)[C@H](Cc2c[nH]cn2)NC1=O` [gallium-67 labelled] has a tissue uptake of 0.54 ± 0.35 %ID/g (female C57 mice, B16/F1 melanoma, skin; intravenous, 0.037 MBq, 2 h).
Under “surface tension at CMC”, `CC(C)CCCC(C)CCCC(C)CCOC1O[C@H](CO)[C@@H](O)[C@H](O)[C@@H]1O` (some centres unmarked) is recorded as 27.2 mN/m (drop shape tensiometry; water; room temperature).
The membrane retention of `C/C=C/CNC(=N)NCCCCCCCCN1CCCCCCOc2ccccc2CNC(=N)NC1=O` is reported as 50.8% (PAMPA; egg phosphatidylcholine in dodecane; 500 µM, 5 h, pH 7.4, room temperature).
`CC(=O)N[C@@H](CCCCN)C(=O)N[C@@H](CCCCN)C(=O)N[C@@H](CCCCN)C(=O)N[C@@H](CO)C(=O)NCC(=O)N[C@@H](CO)C(=O)NCC(=O)N[C@@H](CCC(N)=O)C(=O)N[C@@H](CCC(N)=O)C(=O)N[C@@H](CCCCN)C(=O)N[C@@H](Cc1ccccc1)C(=O)N[C@@H](CCC(N)=O)C(=O)N[C@@H](Cc1ccccc1)C(=O)N[C@@H](CCC(N)=O)C(=O)N[C@@H](Cc1ccccc1)C(=O)N[C@@H](CCC(=O)O)C(=O)N[C@@H](CCC(N)=O)C(=O)N[C@@H](CCC(N)=O)C(N)=O` has a nanofiber width of 9.66 ± 0.99 nm (negative-stain TEM; 1× PBS; 0.2 mM).
`O=C(NC1CC=C(c2cc3c(Nc4cc5ncsc5cc4F)ncnc3s2)CC1)NC1CC1` (racemic) has an intrinsic clearance of < 12 mL/min/g protein (human liver microsomes; 1 µM).
`CC(C)C[C@@H](NC(=O)[C@H](NC(=O)[C@H]1CCCN1)[C@H](C)O)C(=O)N[C@H](Cc1c[nH]cn1)C(=O)N[C@@H](C(=O)N[C@H](Cc1c[nH]cn1)C(=O)N[C@H](CC(N)=O)C(=O)N[C@H](CCCNC(=N)N)C(=O)N[C@H](CCCNC(=N)N)C(=O)N[C@H](CCCNC(=N)N)C(=O)N[C@H](CCCNC(=N)N)C(=O)N[C@H](CCCNC(=N)N)C(N)=O)[C@H](C)O` gave an AUC(0-inf) of 659 ± 605 ng·h/mL (Beagle dog, CSF; oral, 50 mg/kg).
For `NS(=O)(=O)c1ccc(N2N=C(C(F)(F)F)CC2c2ccc(F)cc2F)cc1` (centres unmarked), the AUC(0-t) was 46700 ± 35300 ng·h/mL (Beagle dog, both sexes, plasma; oral, 4 mg/kg, single dose).
For `Cc1noc(C)c1Cn1cc(N2C(=O)CN(Cc3cccc(OS(=O)(=O)O)c3)C2=O)cn1`, the AUC(0-last) was 72500 ng·h/mL (rat Sprague-Dawley male, plasma; oral, 100 mg/kg of parent drug).
For `Cc1cccc(CSc2nc(N)c(C#N)c(-c3cccc(O[11CH3])c3)c2C#N)n1`, “parent compound fraction” read > 99% (radio-HPLC; rat, brain homogenate; 15 min).
`CCC(=O)N[C@@H](C)C(=O)OCC(=O)N[C@@H](C)C(=O)O` gave a depolymerization half-life of 83.2 h (water; pH 6, 50 °C).

Repeated from above:
For `C#CCOc1ccc(/C=C2\SC(=O)N(CC(=O)NCc3ccccc3)C2=O)cc1`, the correlation volume was 1420 cm³/mol (inverse Kirkwood-Buff integrals; binary solvent mixture; concentration not given, 298.15 K, mole fraction x1 0.05).
`CC(=O)N[C@@H](CCCCN)C(=O)N[C@@H](CCCCN)C(=O)N[C@@H](CCCCN)C(=O)N[C@@H](CO)C(=O)NCC(=O)N[C@@H](CO)C(=O)NCC(=O)N[C@@H](CCC(N)=O)C(=O)N[C@@H](CCC(N)=O)C(=O)N[C@@H](CCCCN)C(=O)N[C@@H](Cc1ccccc1)C(=O)N[C@@H](CCC(N)=O)C(=O)N[C@@H](Cc1ccccc1)C(=O)N[C@@H](CCC(N)=O)C(=O)N[C@@H](Cc1ccccc1)C(=O)N[C@@H](CCC(=O)O)C(=O)N[C@@H](CCC(N)=O)C(=O)N[C@@H](CCC(N)=O)C(N)=O` has a nanofiber width of 9.66 ± 0.99 nm (negative-stain TEM; 1× PBS; 0.2 mM).
The absorption maximum of `COc1ccc(/C=C/c2ccc(-c3ccc(C)cn3)nc2)cc1` is reported as 374 nm (acetonitrile; zinc complex).
`CC(C)C[C@H](NC(=O)C[C@H](O)[C@H](CC(C)C)NC(=O)[C@H](Cc1c[nH]cn1)NC(=O)CNC(=O)[C@@H](NC(=O)[C@H](C)NC(=O)[C@H](Cc1c[nH]c2ccccc12)NC(=O)[C@H](CCC(N)=O)NC(=O)[C@@H](Cc1ccccc1)NC(=O)CCNC(=O)CCNC(=O)CN1CCN(CC(=O)O)CCN(CC(=O)O)CCN(CC(=O)O)CC1)C(C)C)C(N)=O` [lutetium-177 labelled] gave an absorbed dose of 7.3 Gy (MIRD; mouse PC-3 xenograft, kidneys; intraperitoneal, 50 MBq, without PA).
The membrane retention of `C/C=C/CNC(=N)NCCCCCCCCN1CCCCCCOc2ccccc2CNC(=N)NC1=O` is reported as 50.8% (PAMPA; egg phosphatidylcholine in dodecane; 500 µM, 5 h, pH 7.4, room temperature).
